{"data": "Published values from different studies", "note": "A part holds a random share of what one study measured."}
{"data": "Set 1", "target": "Replicase polyprotein 1ab, polymerase (rep, Severe acute respiratory syndrome coronavirus 2, UniProt P0DTD1)", "observed": "enzyme activity", "action": "inhibitor", "tested at": "20 µM"}
{"SMILES": "O=c1ncn2nc(Sc3ccc(F)cc3F)ccc2c1-c1c(Cl)cccc1Cl", "inhibition": "0.55%"}
{"SMILES": "COC(=O)C1=C(C)NC(C)=C(C(=O)OC)C1c1ccccc1[N+](=O)[O-]", "inhibition": "35%"}
{"SMILES": "NS(=O)(=O)c1cc2c(cc1Cl)N=CNS2(=O)=O", "inhibition": "-3.17%"}
{"SMILES": "C[C@@H]1CC[C@H]2[C@@H](C)C(=O)O[C@@H]3O[C@@]4(C)CC[C@@H]1[C@]32OO4", "inhibition": "1.78%"}
{"SMILES": "Cn1c(=O)cc(N2CCC[C@@H](N)C2)n(Cc2ccccc2C#N)c1=O", "inhibition": "6.01%"}
{"SMILES": "Cc1cccc(NC(=O)c2ccc(C(F)(F)F)cc2C(=O)O)n1", "inhibition": "-0.64%"}
{"SMILES": "C[N+]1(C)[C@@H]2C[C@@H](OC(=O)C(O)(c3cccs3)c3cccs3)C[C@H]1[C@@H]1O[C@@H]12", "inhibition": "2.3%"}
{"SMILES": "CC(=O)[C@@]1(O)CC[C@H]2[C@@H]3CCC4=CC(=O)CC[C@]4(C)[C@H]3CC[C@@]21C", "inhibition": "0.14%"}
{"SMILES": "Cn1c(=O)c2c(ncn2CCO)n(C)c1=O", "inhibition": "-1.7%"}
{"SMILES": "Clc1ccc([C@]23CNC[C@H]2C3)cc1Cl", "inhibition": "0.23%"}
{"SMILES": "COC(=O)[C@H](c1ccccc1Cl)N1CCc2sccc2C1", "inhibition": "-9.93%"}
{"SMILES": "CC(=O)Nc1ccc(OCC(O)CNC(C)C)cc1 (stereo not shown)", "inhibition": "3.89%"}
{"SMILES": "CC(=O)N(O)C/C=C/c1cccc(Oc2ccccc2)c1", "inhibition": "-2.52%"}
{"SMILES": "C=C1CCN([C@H](C)[C@](O)(Cn2cncn2)c2ccc(F)cc2F)CC1", "inhibition": "-3.3%"}
{"SMILES": "Cn1cc(-c2ccc(S(=O)(=O)n3ccc(/C=C/C(=O)Nc4ccccc4N)c3)cc2)cn1", "inhibition": "1.41%"}
{"SMILES": "CCCCCCCC(=O)N[C@H](CN1CCCC1)[C@H](O)c1ccc2c(c1)OCCO2", "inhibition": "-7.72%"}
{"SMILES": "O=C1CN=C(c2cccc(Br)c2)c2oc3ccccc3c2N1", "inhibition": "0.63%"}
{"SMILES": "C/C1=C/C[C@@H](/C(C)=C/c2csc(C)n2)OC(=O)C[C@H](O)C(C)(C)C(=O)[C@H](C)[C@@H](O)[C@@H](C)CCC1", "inhibition": "0.94%"}
{"data": "Set 2", "target": "Histone acetyltransferase KAT6A, winged helix 1, GST fusion (KAT6A, Homo sapiens, UniProt Q92794, residues 1-85)", "technique": "protein binding microarray", "molecule type": "double-stranded DNA, one strand shown", "sample": "in vitro", "tested at": "not given", "setting": "8-mer, flanks averaged, mean of 2 arrays, mostly near background", "reference": "not given", "reading": "higher = stronger binding", "Target sequence (chain)": "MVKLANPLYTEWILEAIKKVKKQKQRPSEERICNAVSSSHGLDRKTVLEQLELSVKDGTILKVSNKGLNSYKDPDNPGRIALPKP"}
{"Sequence": "ACTGACAT", "E-score": -0.26}
{"Sequence": "AATGTCCC", "E-score": 0.0136}
{"Sequence": "GGCAGTCA", "E-score": -0.0672}
{"Sequence": "ATTAGGTC", "E-score": -0.0334}
{"Sequence": "GAGACTCA", "E-score": -0.244}
{"Sequence": "AATCCATG", "E-score": -0.194}
{"Sequence": "CCAAACGA", "E-score": -0.04}
{"Sequence": "TACCGCAA", "E-score": 0.149}
{"data": "Set 3", "target": "RNA binding protein fox-1 homolog 2, RRM domain, GST-SBP tag (RBFOX2, Homo sapiens, UniProt O43251-10, residues 100-194)", "technique": "RNA Bind-n-Seq", "molecule type": "RNA", "sample": "in vitro", "tested at": "365 nM", "setting": "natural RNA segment, single round, ends assumed", "reference": "no-protein control", "reading": "higher = stronger binding", "all sequences stand within": "GGGAGUUCUACAGUCCGACGAUC … UGGAAUUCUCGGGUGCCAA"}
{"Sequence": "CAGAUAGCCUUUUAUCUGUGGAUGACUGAUGUUACUAUCUUUAUAUUUGACUUUGUAUGUCAGUUCCCUGGUUUUUUUGAUAUUGCAUCAUAGGACCUCUGGCAUUUUAG", "RBNS enrichment (R)": 0.363}
{"Sequence": "AUGGACACCUUGCUGGACUUGAAGUCCGCUAGUUGGACUUUGCCUAGGGCUUUCAUCUUGCCUUGCCCUCCCUUUCUGUCCCAUCUGCAGCCUCACCAGGUGGGCUUGUA", "RBNS enrichment (R)": 0.943}
{"Sequence": "CUGAUUUUUCCUCCAUCCUGCUUACCACCUCCCUGGGUACUUACAGCCUUCUCUUGGGAACAGCCGGGGCCAGGACUGGGUCACCUAUGAGCUGAAUCAGCAUCUCCUCC", "RBNS enrichment (R)": 0.393}
{"Sequence": "CCAGUCCUGAGGGAGGGGCUUGCCCCACCUUCUACAUUCCAAUUUUUAUAUCUUUGAAUUAUGUGAUUAGAUAUUAAUUUAAUGAUAAAACCACUCUGAAAGCUCUUCUC", "RBNS enrichment (R)": 0.428}
{"Sequence": "CUGUUUUUGUUGCUCAGUAAUUCAGGUGGAAAUAUAUAACGCAAGUGGGUAGAGCGUCUGCCAGACUCCUGGCCUGGUGUGCCUGGGUAGAAUUACACGAUAAGCAAUGG", "RBNS enrichment (R)": 0.801}
{"Sequence": "AGCAUCGUAAAUUAUCCAAGGAAGAUAUGGCAGGCCAAGCUGGUGCUGACCGCUGGUUUGAUUUUCUUUUUUGUUUUUGUUUUUGUCUCUGUCUCCUUGGGUGUCUGCUC", "RBNS enrichment (R)": 1.07}
{"Sequence": "GUCAGGUCAUUAUUUGCUGUAUCAAAGUUCCAGUGGCUUCAGAAAUCAUAGCAUCCCAUGGUUUUGUGGUAUCUGGGUUUGUGUAAUGUUGUUGACACCUGUAUUUAAUG", "RBNS enrichment (R)": 1.63}
{"Sequence": "GGUCUGAAGAUGGUCAAGUCUGUUUGCCUUAGAUUUUGAUGUCACCUAGACAACACUUAAACUCAUAUGAAACAAAAAUUAAAAUACGUAUUACAAGUACUUGGAUUGUU", "RBNS enrichment (R)": 0.99}
{"data": "Set 4", "cell line": "HEK-293T/ACE2", "tested at": "concentration not given", "time": "16 (unit not given)", "reference": "vehicle"}
{"SMILES": "COc1cc2nc(N(C)CCCNC(=O)C3CCCO3)nc(N)c2cc1OC (stereo not shown)", "viability [%]": 99.5}
{"SMILES": "CC(=O)OCC(=O)[C@@]1(O)CC[C@H]2[C@@H]3CCC4=CC(=O)CC[C@]4(C)[C@@]3(F)[C@@H](O)C[C@@]21C", "viability [%]": 101}
{"SMILES": "C[C@H](CCC(=O)NCCS(=O)(=O)O)[C@H]1CC[C@H]2[C@@H]3[C@@H](O)C[C@@H]4C[C@H](O)CC[C@]4(C)[C@H]3CC[C@]12C", "viability [%]": 106}
{"SMILES": "O=S(=O)(O)Oc1ccc(C(c2ccc(OS(=O)(=O)O)cc2)c2ccccn2)cc1", "viability [%]": 103}
{"SMILES": "CCOC(=O)CC(SP(=S)(OC)OC)C(=O)OCC (stereo not shown)", "viability [%]": 99.5}
{"data": "Other studies, line by line"}
{"Compound": "CC(C)Nc1cccnc1N1CCN(C(=O)c2cc3cc(NS(C)(=O)=O)ccc3[nH]2)CC1", "target": "Replicase polyprotein 1ab, main protease (rep, Severe acute respiratory syndrome coronavirus 2, UniProt P0DTD1)", "test": "enzyme activity, inhibitor", "conditions": "20 µM, with DTT", "measurement": "inhibition", "result": "67.5%"}
{"note": "For quick reference, copied from above (set 3):"}
{"Sequence": "AUGGACACCUUGCUGGACUUGAAGUCCGCUAGUUGGACUUUGCCUAGGGCUUUCAUCUUGCCUUGCCCUCCCUUUCUGUCCCAUCUGCAGCCUCACCAGGUGGGCUUGUA", "RBNS enrichment (R)": 0.943}
{"Sequence": "CUGAUUUUUCCUCCAUCCUGCUUACCACCUCCCUGGGUACUUACAGCCUUCUCUUGGGAACAGCCGGGGCCAGGACUGGGUCACCUAUGAGCUGAAUCAGCAUCUCCUCC", "RBNS enrichment (R)": 0.393}
{"Sequence": "CCAGUCCUGAGGGAGGGGCUUGCCCCACCUUCUACAUUCCAAUUUUUAUAUCUUUGAAUUAUGUGAUUAGAUAUUAAUUUAAUGAUAAAACCACUCUGAAAGCUCUUCUC", "RBNS enrichment (R)": 0.428}
{"Sequence": "CUGUUUUUGUUGCUCAGUAAUUCAGGUGGAAAUAUAUAACGCAAGUGGGUAGAGCGUCUGCCAGACUCCUGGCCUGGUGUGCCUGGGUAGAAUUACACGAUAAGCAAUGG", "RBNS enrichment (R)": 0.801}
{"Sequence": "AGCAUCGUAAAUUAUCCAAGGAAGAUAUGGCAGGCCAAGCUGGUGCUGACCGCUGGUUUGAUUUUCUUUUUUGUUUUUGUUUUUGUCUCUGUCUCCUUGGGUGUCUGCUC", "RBNS enrichment (R)": 1.07}
